Published values collected from several papers.
± gives the spread as reported.
Cell line: A549

SMILES | effect on | technique | time | setting | with | IC50 [µM]
Cc1cc(C)c(C2CN(C)C3(C(=O)Nc4ccccc43)C2C(=O)c2ccc(Cl)cc2)c(C)c1 (stereo not drawn) | cell growth or viability | MTT | 24 h |  |  | > 100
CC(=NN=C(N)[S-])C(C)=NN=C(N)[S-].NCc1ccccc1.NCc1ccccc1.O=[N+]([O-])[O-].[Co+3] | cell viability | MTT | 24 h then 48 h recovery | normoxia |  | > 500
O=[N+]([O-])c1ccc(-n2nc(-c3cccs3)sc2=NN=Cc2ccccc2)cc1 | cell growth or viability |  |  |  |  | 11.6
Cc1ccc(NC(=O)c2ccc3c(c2)CC[C@@H]3N2CCN(C)CC2)cc1C#Cc1cnc2ccc(Cl)nn12 | cell growth or viability |  | 72 h |  |  | 1 to 10
CN1CCC2(CC1)C/C(=N\N=C\c1ccc(Cl)cc1)c1ccccc1O2 | cell growth or viability | MTT | 48 h |  |  | 2.03
CCOC(=O)c1[nH]c(N)nc1-c1cccc(NC(=O)c2cc3ccccc3[nH]2)c1 | cell growth or viability | resazurin | 72 h |  |  | 34.6
CC(C=NN=C(N)[S-])=NN=C(N)[S-].NCc1ccccc1.NCc1ccccc1.O=[N+]([O-])[O-].[Co+3] | cell viability | MTT | 24 h hypoxic, 48 h normoxic | hypoxic treatment |  | ~27
Cc1ccc(C(=O)C2C(c3c(C)cc(C)cc3C)C3CCCN3C23C(=O)Nc2ccccc23)cc1 (stereo not drawn) | cell growth or viability | MTT | 24 h |  |  | 15.7
O=[N+]([O-])c1cccc(/C=C/c2nc3ccc(Br)cc3nc2/C=C/c2cccc([N+](=O)[O-])c2)c1 | cell growth or viability | MTT | 72 h |  |  | > 100
Cc1cc(C)c(C2C3CCCN3C3(C(=O)Nc4ccccc43)C2C(=O)c2ccc(Cl)cc2)c(C)c1 (stereo not drawn) | cell growth or viability | MTT | 48 h |  |  | 8.24
O=[N+]([O-])c1ccc2nc(/C=C/c3ccc4ccccc4c3)c(/C=C/c3ccc4ccccc4c3)nc2c1 | cell growth or viability | MTT | 72 h |  |  | > 100
CNC(=O)c1c(C)oc2cc(Oc3ncnc4cc(OC)c(OC)cc34)ccc12 | cell growth or viability | CCK-8 | 48 h |  |  | > 20
O=C(Cn1cc(COc2ncnc3[nH]cnc23)nn1)Nc1ccc([N+](=O)[O-])cc1 | cell growth or viability | MTT |  |  |  | > 100
Cc1ccc(C(=O)C2C(c3c(C)cc(C)cc3C)CN(C)C23C(=O)Nc2ccccc23)cc1 (stereo not drawn) | cell growth or viability | MTT | 48 h |  |  | 5.5
CC(C=NNC(N)=S)=NNC(N)=S | cell viability | MTT | 24 h hypoxic, 48 h normoxic | hypoxic treatment |  | 0.09 ± 0.03
C=CC1=C(C)c2cc3[nH]c(cc4nc(cc5[nH]c(cc1n2)c(C)c5CCC(=O)O)C(CCC(=O)O)=C4C)c(C)c3C=C | cell viability | resazurin | 48 h |  | 510 nm light 2.44 J/cm2 for 10 min | 0.45 ± 0.06
CC(=O)c1[nH]c(N)nc1-c1cccc(NC(=O)c2cc3cc(F)ccc3[nH]2)c1 | cell growth or viability | resazurin | 72 h |  |  | 43.7
CC(=O)OC[C@H]1O[C@@H]([S-])[C@H](OC(C)=O)[C@@H](OC(C)=O)[C@@H]1OC(C)=O.CCP(CC)CC.[Au+] | cell growth or viability | crystal violet | 72 h |  |  | 4.2
Fc1ccc(/C=C/c2nc3ccc(Br)cc3nc2/C=C/c2ccc(F)cc2)cc1 | cell growth or viability | MTT | 72 h |  |  | > 100
O=C(Nc1cc2ccccc2cc1C(=O)O)c1ccccc1 | cytotoxicity | MTT |  |  | visible light, BSA 0.6 mM | > 100
Cc1cc(C)c(C2CN(C)C3(C(=O)Nc4ccccc43)C2C(=O)c2ccccc2)c(C)c1 (stereo not drawn) | cell growth or viability | MTT |  |  |  | < 10
O=[N+]([O-])c1ccc2nc(/C=C/c3ccc(Br)cc3)c(/C=C/c3ccc(Br)cc3)nc2c1 | cell growth or viability | MTT | 72 h |  |  | > 100
Cc1cc(C)c(C2CN(C)C3(C(=O)Nc4ccccc43)C2C(=O)c2cccc(Cl)c2)c(C)c1 (stereo not drawn) | cell growth or viability | MTT | 48 h |  |  | > 100
O=[N+]([O-])c1ccc2nc(/C=C/c3ccc(Cl)cc3)c(/C=C/c3ccc(Cl)cc3)nc2c1 | cell growth or viability | MTT | 72 h |  |  | > 100

Repeated from above:
SMILES | effect on | technique | time | setting | with | IC50 [µM]
Cc1cc(C)c(C2CN(C)C3(C(=O)Nc4ccccc43)C2C(=O)c2ccc(Cl)cc2)c(C)c1 (stereo not drawn) | cell growth or viability | MTT | 24 h |  |  | > 100
CC(=NN=C(N)[S-])C(C)=NN=C(N)[S-].NCc1ccccc1.NCc1ccccc1.O=[N+]([O-])[O-].[Co+3] | cell viability | MTT | 24 h then 48 h recovery | normoxia |  | > 500
O=[N+]([O-])c1ccc(-n2nc(-c3cccs3)sc2=NN=Cc2ccccc2)cc1 | cell growth or viability |  |  |  |  | 11.6
Cc1ccc(NC(=O)c2ccc3c(c2)CC[C@@H]3N2CCN(C)CC2)cc1C#Cc1cnc2ccc(Cl)nn12 | cell growth or viability |  | 72 h |  |  | 1 to 10
